{"data": "Measurements gathered from unrelated publications", "note": "Each numbered part is a random draw from the data of one study; scales do not carry over between parts. Several values in a cell are separate wells, animals, samples, runs or records.", "chain of UniProt P43116 (whole entry, looked up)": "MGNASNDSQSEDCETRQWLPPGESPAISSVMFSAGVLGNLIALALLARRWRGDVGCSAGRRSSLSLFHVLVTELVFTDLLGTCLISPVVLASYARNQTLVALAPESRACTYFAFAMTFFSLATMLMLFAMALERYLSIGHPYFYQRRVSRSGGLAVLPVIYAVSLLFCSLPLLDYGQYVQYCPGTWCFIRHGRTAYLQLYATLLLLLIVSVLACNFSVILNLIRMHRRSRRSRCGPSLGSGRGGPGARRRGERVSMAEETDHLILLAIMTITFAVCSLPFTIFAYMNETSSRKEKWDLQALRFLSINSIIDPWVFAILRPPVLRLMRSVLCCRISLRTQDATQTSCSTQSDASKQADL", "chain of UniProt Q15761 (whole entry, looked up)": "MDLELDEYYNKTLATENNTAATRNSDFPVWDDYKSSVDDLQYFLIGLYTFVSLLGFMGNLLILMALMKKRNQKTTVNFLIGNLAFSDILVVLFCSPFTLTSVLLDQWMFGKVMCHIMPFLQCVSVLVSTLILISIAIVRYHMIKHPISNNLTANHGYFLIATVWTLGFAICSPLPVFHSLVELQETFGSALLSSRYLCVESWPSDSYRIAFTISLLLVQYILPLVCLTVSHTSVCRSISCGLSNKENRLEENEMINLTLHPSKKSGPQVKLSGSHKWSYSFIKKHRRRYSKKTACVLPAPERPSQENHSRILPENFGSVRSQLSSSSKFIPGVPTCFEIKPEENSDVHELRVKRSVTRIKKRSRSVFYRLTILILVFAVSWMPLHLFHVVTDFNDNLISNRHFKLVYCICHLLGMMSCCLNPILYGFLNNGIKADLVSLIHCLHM", "chain of UniProt Q9Y6M4 (whole entry, looked up)": "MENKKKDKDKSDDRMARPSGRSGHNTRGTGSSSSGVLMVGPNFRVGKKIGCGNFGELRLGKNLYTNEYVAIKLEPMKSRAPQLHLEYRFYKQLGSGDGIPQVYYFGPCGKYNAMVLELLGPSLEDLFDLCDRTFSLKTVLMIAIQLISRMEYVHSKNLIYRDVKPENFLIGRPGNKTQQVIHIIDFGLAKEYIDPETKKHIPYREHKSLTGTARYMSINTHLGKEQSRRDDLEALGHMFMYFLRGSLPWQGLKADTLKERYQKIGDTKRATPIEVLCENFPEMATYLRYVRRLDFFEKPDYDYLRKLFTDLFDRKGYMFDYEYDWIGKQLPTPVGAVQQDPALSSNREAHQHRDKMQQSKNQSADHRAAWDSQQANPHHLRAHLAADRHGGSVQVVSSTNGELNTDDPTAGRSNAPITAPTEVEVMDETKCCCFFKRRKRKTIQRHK", "chain of UniProt P27361 (whole entry, looked up)": "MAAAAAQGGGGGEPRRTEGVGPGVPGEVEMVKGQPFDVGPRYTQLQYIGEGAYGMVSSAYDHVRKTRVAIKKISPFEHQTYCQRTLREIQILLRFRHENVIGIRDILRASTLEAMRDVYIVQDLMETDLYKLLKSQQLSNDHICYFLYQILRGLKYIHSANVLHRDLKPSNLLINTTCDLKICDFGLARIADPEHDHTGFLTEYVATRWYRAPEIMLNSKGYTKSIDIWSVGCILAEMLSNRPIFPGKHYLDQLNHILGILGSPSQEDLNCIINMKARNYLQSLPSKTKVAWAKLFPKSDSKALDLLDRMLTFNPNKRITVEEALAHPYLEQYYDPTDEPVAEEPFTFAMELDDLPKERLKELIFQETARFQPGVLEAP", "chain of UniProt P49137 (whole entry, looked up)": "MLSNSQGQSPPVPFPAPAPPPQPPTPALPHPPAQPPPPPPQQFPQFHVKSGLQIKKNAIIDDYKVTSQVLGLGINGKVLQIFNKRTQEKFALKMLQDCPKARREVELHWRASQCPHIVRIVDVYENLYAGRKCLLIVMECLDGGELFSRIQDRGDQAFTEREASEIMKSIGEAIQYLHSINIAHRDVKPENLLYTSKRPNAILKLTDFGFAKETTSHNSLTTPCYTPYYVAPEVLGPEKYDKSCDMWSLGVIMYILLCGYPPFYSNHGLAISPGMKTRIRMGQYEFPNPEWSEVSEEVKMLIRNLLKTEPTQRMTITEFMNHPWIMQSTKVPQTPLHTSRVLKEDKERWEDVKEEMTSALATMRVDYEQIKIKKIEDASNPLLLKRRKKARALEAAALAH", "chain of UniProt Q12866 (whole entry, looked up)": "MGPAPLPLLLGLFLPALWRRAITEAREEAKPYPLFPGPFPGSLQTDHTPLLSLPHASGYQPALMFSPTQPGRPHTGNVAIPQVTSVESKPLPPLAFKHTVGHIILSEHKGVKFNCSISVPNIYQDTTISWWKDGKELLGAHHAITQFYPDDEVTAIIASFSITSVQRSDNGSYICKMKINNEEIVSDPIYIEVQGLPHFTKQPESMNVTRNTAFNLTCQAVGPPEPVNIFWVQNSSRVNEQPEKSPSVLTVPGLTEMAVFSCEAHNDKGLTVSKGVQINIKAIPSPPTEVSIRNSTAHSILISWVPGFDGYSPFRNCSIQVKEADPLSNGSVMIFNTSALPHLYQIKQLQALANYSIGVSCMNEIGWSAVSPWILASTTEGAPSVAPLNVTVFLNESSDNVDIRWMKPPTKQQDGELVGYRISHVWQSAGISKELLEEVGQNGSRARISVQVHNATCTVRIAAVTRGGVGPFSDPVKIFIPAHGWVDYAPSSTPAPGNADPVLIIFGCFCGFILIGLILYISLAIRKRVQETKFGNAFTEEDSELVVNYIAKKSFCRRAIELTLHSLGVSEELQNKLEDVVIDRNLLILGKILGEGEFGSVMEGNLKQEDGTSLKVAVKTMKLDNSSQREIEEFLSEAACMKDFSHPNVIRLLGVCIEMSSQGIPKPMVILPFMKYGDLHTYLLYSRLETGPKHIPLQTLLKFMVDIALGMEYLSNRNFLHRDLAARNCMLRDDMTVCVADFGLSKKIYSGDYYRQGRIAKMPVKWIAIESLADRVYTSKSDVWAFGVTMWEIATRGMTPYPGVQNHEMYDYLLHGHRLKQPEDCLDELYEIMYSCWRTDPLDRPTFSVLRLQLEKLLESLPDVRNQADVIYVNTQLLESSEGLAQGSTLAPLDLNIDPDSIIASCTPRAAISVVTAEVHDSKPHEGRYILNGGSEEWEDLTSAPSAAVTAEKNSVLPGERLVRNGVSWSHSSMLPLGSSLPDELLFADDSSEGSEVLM", "chain of UniProt Q9UHD2 (whole entry, looked up)": "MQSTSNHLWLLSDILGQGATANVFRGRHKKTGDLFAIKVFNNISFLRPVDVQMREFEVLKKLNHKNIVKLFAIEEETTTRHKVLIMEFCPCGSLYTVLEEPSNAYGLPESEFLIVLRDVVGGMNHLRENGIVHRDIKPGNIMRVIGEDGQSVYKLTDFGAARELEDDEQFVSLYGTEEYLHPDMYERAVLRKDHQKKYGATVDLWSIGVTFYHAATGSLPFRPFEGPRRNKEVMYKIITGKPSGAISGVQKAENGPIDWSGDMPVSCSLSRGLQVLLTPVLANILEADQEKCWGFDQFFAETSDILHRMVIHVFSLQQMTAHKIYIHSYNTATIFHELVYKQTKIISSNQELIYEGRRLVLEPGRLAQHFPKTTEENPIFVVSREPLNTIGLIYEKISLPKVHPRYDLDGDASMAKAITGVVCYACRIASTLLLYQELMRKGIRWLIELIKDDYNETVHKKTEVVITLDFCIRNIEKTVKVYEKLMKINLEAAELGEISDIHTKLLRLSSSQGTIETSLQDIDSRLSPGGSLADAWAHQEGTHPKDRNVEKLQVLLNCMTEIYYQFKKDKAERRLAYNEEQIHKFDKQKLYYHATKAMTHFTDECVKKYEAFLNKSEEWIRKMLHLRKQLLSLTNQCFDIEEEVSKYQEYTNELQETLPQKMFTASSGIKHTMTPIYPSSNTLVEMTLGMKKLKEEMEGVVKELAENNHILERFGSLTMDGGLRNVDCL", "chain of UniProt Q9HC98 (whole entry, looked up)": "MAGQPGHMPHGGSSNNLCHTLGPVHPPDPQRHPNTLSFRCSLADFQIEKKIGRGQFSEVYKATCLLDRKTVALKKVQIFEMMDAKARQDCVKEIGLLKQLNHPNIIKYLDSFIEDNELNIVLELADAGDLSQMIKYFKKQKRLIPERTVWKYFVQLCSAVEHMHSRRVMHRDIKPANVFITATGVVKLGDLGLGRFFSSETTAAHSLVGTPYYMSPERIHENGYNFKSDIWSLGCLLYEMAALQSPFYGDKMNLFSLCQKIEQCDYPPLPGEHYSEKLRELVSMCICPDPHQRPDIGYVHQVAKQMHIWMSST", "chain of UniProt P49841 (whole entry, looked up)": "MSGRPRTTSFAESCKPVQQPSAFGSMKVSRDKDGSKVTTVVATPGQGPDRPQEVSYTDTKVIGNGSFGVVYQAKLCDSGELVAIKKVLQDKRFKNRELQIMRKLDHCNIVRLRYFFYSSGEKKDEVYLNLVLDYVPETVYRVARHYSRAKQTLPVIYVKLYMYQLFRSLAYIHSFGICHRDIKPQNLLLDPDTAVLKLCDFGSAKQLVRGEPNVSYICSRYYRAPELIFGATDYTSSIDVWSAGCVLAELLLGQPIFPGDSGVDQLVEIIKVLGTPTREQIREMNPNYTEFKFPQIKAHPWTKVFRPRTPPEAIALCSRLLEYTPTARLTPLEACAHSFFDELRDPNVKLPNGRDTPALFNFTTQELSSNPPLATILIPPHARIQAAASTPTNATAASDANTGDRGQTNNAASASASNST"}
{"data": "Sample 1", "target": "Translocator protein (Tspo, Rattus norvegicus, UniProt P16257)", "effect on": "radioligand binding", "technique": "radioligand displacement", "concentration": "10 µM", "chain of UniProt P16257 (whole entry, looked up)": "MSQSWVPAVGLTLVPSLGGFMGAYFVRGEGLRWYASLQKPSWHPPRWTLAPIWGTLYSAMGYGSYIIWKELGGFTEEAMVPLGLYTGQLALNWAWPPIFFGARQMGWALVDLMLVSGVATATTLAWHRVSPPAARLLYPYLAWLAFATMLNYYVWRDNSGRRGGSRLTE"}
{"SMILES": "CC(=O)Nc1ncc(CN2CCC[C@H](Cc3cc(C)nc(C)c3)C2)s1", "inhibition [%]": 5.69}
{"SMILES": "O=C(Nc1ccc(Oc2ccc(F)cc2)cc1)N1CCc2ncccc2[C@H]1c1ccc(F)cc1", "inhibition [%]": 33.4}
{"SMILES": "CNC(=N)NCCC[C@H](NC(=O)[C@H](CC(C)C)NC(=O)NNC(=O)[C@H](Cc1ccccc1)NC(=O)[C@H](CO)NC(=O)[C@H](CC(N)=O)NC(=O)[C@@H](Cc1cccnc1)NC(=O)[C@H](N)Cc1ccc(O)cc1)C(=O)NCC(N)=O", "inhibition [%]": 15.6}
{"SMILES": "O=S(=O)(NC1CCC(c2cc(F)ccc2F)(S(=O)(=O)c2ccc(Cl)cc2)CC1)C(F)(F)F (centres unmarked)", "inhibition [%]": 37.2}
{"SMILES": "COc1nc2ccc([C@@](O)(c3ccccc3)C3CCN(C(C)=O)CC3)cc2c(Cl)c1Cc1ccc(-n2cccn2)cc1", "inhibition [%]": 35.6}
{"SMILES": "Cc1c(N2CCCC2)nc2ccc(Br)cc2c1C(=O)NC[C@H](CCC(=O)O)c1ccccc1Cl", "inhibition [%]": -2.43}
{"data": "Sample 2", "cell line": "mouse MPNST tumor cells", "technique": "high-content nuclear imaging", "item": "cell number", "concentration": "10 µM", "time": "12 h", "notes": "mean of 2 replicates", "baseline": "plate mean", "reading": "higher = more cells"}
{"Structure (SMILES)": "CC(C)S(=O)(=O)c1ccc2nccc(Nc3ccc4scnc4c3)c2c1", "nuclei count": "2.71 z-score"}
{"Structure (SMILES)": "CCN(CC)Cc1cc(Nc2ccnc3cc(Cl)ccc23)ccc1O", "nuclei count": "0.258 z-score and -5.37 z-score"}
{"Structure (SMILES)": "COC1C(O)CC(=O)OC(C)CC=CC=CC(OC2CCC(N(C)C)C(C)O2)C(C)CC(CC=O)C1OC1OC(C)C(OC2CC(C)(O)C(O)C(C)O2)C(N(C)C)C1O (centres unmarked)", "nuclei count": "3.65 z-score"}
{"Structure (SMILES)": "CC(C)c1c(C(=O)Nc2ccccc2)c(-c2ccccc2)c(-c2ccc(F)cc2)n1CC[C@@H](O)C[C@@H](O)CC(=O)O", "nuclei count": "-2.52 z-score and -1.52 z-score"}
{"Structure (SMILES)": "O=C(Nc1ccccc1)N[C@@H]1C[C@@H](C(=O)O)Nc2cc(Cl)cc(Cl)c21", "nuclei count": "0.22 z-score"}
{"Structure (SMILES)": "CCOC(=O)O[C@]1(C(=O)COC(=O)CC)CC[C@H]2[C@@H]3CCC4=CC(=O)C=C[C@]4(C)[C@H]3[C@@H](O)C[C@@]21C", "nuclei count": "2.07 z-score"}
{"data": "Sample 3", "SMILES": "CCN(c1nc(N)c(C(=O)N=C(N)N)nc1Cl)C(C)C", "effect on": "β-arrestin recruitment", "mode": "agonist", "technique": "PRESTO-Tango", "concentration": "10 µM", "baseline": "untreated"}
{"target": "G-protein coupled receptor 157 (GPR157, Homo sapiens, UniProt Q5UAW9)", "fold over basal": 0.81}
{"target": "AVPR1B (Homo sapiens, UniProt P47901)", "fold over basal": 0.39}
{"target": "PTGER2 (Homo sapiens, UniProt P43116)", "fold over basal": 0.5}
{"target": "GLP2R (Homo sapiens, UniProt O95838)", "fold over basal": "0.45 fold"}
{"target": "NMBR (Homo sapiens, UniProt P28336)", "fold over basal": 1.08}
{"target": "NPY5R (Homo sapiens, UniProt Q15761)", "fold over basal": 0.66}
{"data": "Sample 4", "Structure (SMILES)": "O=C1NC(=O)C(c2c[nH]c3ccccc23)=C1c1c[nH]c2ccccc12", "effect on": "enzyme activity", "mode": "inhibitor", "concentration": "0.5 µM", "baseline": "control"}
{"target": "MAPK3 (Homo sapiens, UniProt P27361)", "remaining activity": "105%"}
{"target": "MAPKAPK2 (Homo sapiens, UniProt P49137)", "remaining activity": "95.6%"}
{"target": "MAP2K2 (Homo sapiens, UniProt P36507)", "remaining activity": "82.7%"}
{"target": "MERTK (Homo sapiens, UniProt Q12866)", "remaining activity": "86.1%"}
{"target": "EPHA3 (Homo sapiens, UniProt P29320)", "remaining activity": "95.1%"}
{"target": "FGFR3 (Homo sapiens, UniProt P22607)", "remaining activity": "70.7%"}
{"target": "CSNK1G3 (Homo sapiens, UniProt Q9Y6M4)", "remaining activity": "89.9%"}
{"target": "GSK3B (Homo sapiens, UniProt P49841)", "remaining activity": "28.4%"}
{"target": "NEK6 (Homo sapiens, UniProt Q9HC98)", "remaining activity": "101%"}
{"target": "JAK3 (Homo sapiens, UniProt P52333)", "remaining activity": "63%"}
{"target": "TBK1 (Homo sapiens, UniProt Q9UHD2)", "remaining activity": "84%"}
{"target": "GRK7 (Homo sapiens, UniProt Q8WTQ7)", "remaining activity": "91.8%"}
{"target": "WEE1 (Homo sapiens, UniProt P30291)", "remaining activity": "98.1%"}
{"target": "MAP3K14 (Homo sapiens, UniProt Q99558)", "remaining activity": "91%"}
